Measurements gathered from unrelated publications.
Lines come from different studies, so protocols differ. Numbers after ± are the reported error.

N[C@@H](COc1ccccc1C(F)(F)F)c1ccccc1  AUC (male Sprague-Dawley rat; oral, 25 mg/kg): 1560 ± 19 ng·h/mL
O=C(O)/C=C/c1ccc(NC(=O)C2(NC(=O)c3ccc4c(C5CCCCC5)c5n(c4c3)CC(=O)Nc3ccccc3-5)CCCC2)cc1  AUC (rat; dose not given): 0.7 µM·h
CC(C)C[C@H](NC(=O)[C@H](CCCCN)NC(=O)CNC(=O)[C@H](CC(C)C)NC(=O)[C@@H](NC(=O)[C@@H]1CSSC[C@H](N)C(=O)N[C@@H](CO)C(=O)N[C@@H](CC(N)=O)C(=O)N[C@@H](CC(C)C)C(=O)N[C@@H](CO)C(=O)N[C@@H]([C@@H](C)O)C(=O)N1)C(C)C)C(=O)N[C@@H](CO)C(=O)N[C@@H](CCC(N)=O)C(=O)N[C@@H](CCC(=O)O)C(=O)N[C@@H](CC(C)C)C(=O)N[C@@H](Cc1c[nH]cn1)C(=O)N[C@@H](CCCCN)C(=O)N[C@@H](CC(C)C)C(=O)N[C@@H](CCC(N)=O)C(=O)N[C@H](C(=O)N[C@@H](Cc1ccc(O)cc1)C(=O)N1CCC[C@H]1C(=O)N[C@@H](CCCNC(=N)N)C(=O)N[C@H](C(=O)N[C@@H](CC(N)=O)C(=O)N[C@H](C(=O)NCC(=O)N[C@@H](CO)C(=O)NCC(=O)N[C@H](C(=O)N1CCC[C@H]1C(N)=O)[C@@H](C)O)[C@@H](C)O)[C@@H](C)O)[C@@H](C)O  AUC (ELISA; hairless male Sprague-Dawley rat, serum; subcutaneous, 3 µg): 6.72 ± 4.22 ng·h/mL
CC(=O)[CH](C(C)=O)[Pt-2]1([S+](C)C)[O]C(C)=CC(C)=[O+]1 (centres unmarked)  AUC ratio (item: platinum; rat; iv, dose not given; baseline: blood over plasma): ~30%
COc1c(O)cccc1-c1n[nH]c(SCc2ccccn2)n1  AUC (Sprague-Dawley rat, male and female, plasma; oral, 100 mg/kg of parent drug): 148 ng·h/mL
CCC(CC)[C@H](NC(C)=O)[C@@H]1[C@H](O)[C@@H](C(=O)N[C@H](C(=O)O)[C@@H](C)CC)C[C@H]1NC(=N)N  AUC (item: intact compound; rat, Sprague-Dawley, male, plasma; oral, 160 mg/kg as peramivir): 20000 ng·h/mL
Cc1ncc2c(n1)CN(C(=O)Nc1nc(-c3cccs3)ccc1N)C2  AUC (male Sprague-Dawley rats; oral, 30 mg/kg daily, day 14): 8240 ± 1940 ng·h/mL
CC(=O)c1cnc(N)nc1N1CC[C@H]1c1nn2ccc(Cl)c2c(=O)n1-c1ccccc1  AUC (rat Wistar female collagen-induced arthritis, plasma; oral, 0.3 mg/kg twice daily): 1880 ± 112 ng·h/mL
